# Experimental data collected from several papers.
# Parts stem from different laboratories: compare values within a part only. Substitutions count along the parent as printed.

# Series 1
# Target: Sal-like protein 4, full length isoform A (SALL4, Homo sapiens, UniProt Q9UJQ4, residues 1-1053)
# Chain of UniProt Q9UJQ4 (whole entry, looked up): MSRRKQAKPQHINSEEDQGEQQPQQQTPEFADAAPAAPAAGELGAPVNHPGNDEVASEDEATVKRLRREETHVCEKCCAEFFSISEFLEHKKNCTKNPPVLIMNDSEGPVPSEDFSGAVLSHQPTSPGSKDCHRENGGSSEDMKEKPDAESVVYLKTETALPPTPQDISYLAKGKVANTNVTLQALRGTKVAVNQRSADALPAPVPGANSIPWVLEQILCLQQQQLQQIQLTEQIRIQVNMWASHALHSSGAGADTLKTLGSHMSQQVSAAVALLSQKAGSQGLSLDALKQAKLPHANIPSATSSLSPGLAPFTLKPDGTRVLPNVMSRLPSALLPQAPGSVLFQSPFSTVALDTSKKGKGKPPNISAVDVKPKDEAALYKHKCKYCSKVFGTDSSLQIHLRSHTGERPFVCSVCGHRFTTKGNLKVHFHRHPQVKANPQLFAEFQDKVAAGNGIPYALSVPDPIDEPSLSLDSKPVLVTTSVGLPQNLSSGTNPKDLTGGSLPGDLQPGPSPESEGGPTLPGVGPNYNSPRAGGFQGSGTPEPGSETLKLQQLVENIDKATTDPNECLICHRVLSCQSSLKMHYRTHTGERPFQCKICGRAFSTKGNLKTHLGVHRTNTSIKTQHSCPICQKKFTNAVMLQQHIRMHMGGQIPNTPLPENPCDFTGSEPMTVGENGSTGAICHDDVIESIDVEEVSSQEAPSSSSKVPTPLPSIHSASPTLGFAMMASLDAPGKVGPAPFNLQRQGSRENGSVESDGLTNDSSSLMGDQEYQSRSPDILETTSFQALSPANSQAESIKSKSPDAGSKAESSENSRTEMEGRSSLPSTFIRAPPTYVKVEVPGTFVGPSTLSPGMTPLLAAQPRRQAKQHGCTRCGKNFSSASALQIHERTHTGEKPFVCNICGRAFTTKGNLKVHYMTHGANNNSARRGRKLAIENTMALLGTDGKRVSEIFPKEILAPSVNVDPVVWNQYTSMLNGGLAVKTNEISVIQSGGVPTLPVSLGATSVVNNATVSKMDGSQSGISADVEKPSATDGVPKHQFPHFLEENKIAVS
# Method: universal PBM
# Form: double-stranded DNA, one strand shown
# Medium: in vitro
# Concentration: 600 nM
# Setting: 8-mer, flanks averaged, mean of replicates
# Direction: higher = stronger binding
Sequence,E-score
TGATCGCA,0.0755
CAGTCGCG,-0.372
GCAAGATA,0.188
ATCGGGCA,-0.241
CGTCAACC,-0.157
CCCATGAA,0.0295
AAGACACG,0.0814
AAGCGATT,0.0931
AAGAGCAT,0.0691
ATCGTTTA,0.267
GCTGATCC,-0.211
CAATAACC,0.266
GCAATCAC,0.0135
CAGTCCAC,-0.0839
ATTGTGTC,0.22
ATTGGTTC,0.0729
ACGCCCCT,-0.289
CAAGCCAA,0.0331
CGAATAAA,0.193
GACGCGAA,-0.0345
CGGATTTA,-0.00771
AGGACTGC,-0.353
CGTTGTGA,0.0154
GAGTGAAA,0.274
CGTGCGTC,-0.168

# Series 2
# Target: Prothrombin, mature alpha-thrombin (F2, Homo sapiens, UniProt P00734)
# Method: aptamer microarray, sandwich
# Form: DNA with 2'F-ANA
# Medium: in vitro
# Concentration: 200 nM
# Setting: whole 15-mer aptamer, many near background
# Added: Cy3 exosite-II aptamer, 400 nM
# Direction: higher = stronger binding
# Sequence: GGTTGGTGTGGTTGG
Modification,mean fluorescence intensity [a.u.]
2'F-ANA at 1 3 4 5 6 9 12 13 14,48.8
2'F-ANA at 1 2 3 4 6 7 9 11,104
2'F-ANA at 2 3 5 7 8 10 12 13,59.5
2'F-ANA at 1 3 6 7 8 9 10 11 12 13,138
2'F-ANA at 1 3 4 9 11,170
2'F-ANA at 3 4 5 7 8 11 12 13,142
2'F-ANA at 2 3 4 5 6 7 10 11,55
2'F-ANA at 1 6 9 11 14,50.1
2'F-ANA at 1 3 5 6 8 10 11 13 14 15,55.1
2'F-ANA at 1 3 4 8 9 11 12 15,355
2'F-ANA at 2 4 10 11 14,66.4
2'F-ANA at 2 3 6 7 8 9 12 13,824
2'F-ANA at 10 11 13 14 15,96.6
2'F-ANA at 1 3 4 7 8 10 14,51.4
2'F-ANA at 1 5 6 7 8 10 12 13 15,49.5
2'F-ANA at 1 2 4 5 11 13 14,50.7
2'F-ANA at 2 5 7 9 13,52.2
2'F-ANA at 2 3 5 7 8 9 10 12 14,49.7
2'F-ANA at 1 3 5 7 8 9 10 14 15,49.1
2'F-ANA at 7 8 13 14,211
2'F-ANA at 1 4 5 6 13 14 15,46
2'F-ANA at 2 4 5 6 9 10 15,44.3
2'F-ANA at 3 4 5 7 8 9 10 11 13,56.3
2'F-ANA at 2 4 6 9 10 11 14 15,75.2
2'F-ANA at 1 3 4 5 7 8 10 11 12 14 15,47.1

# Series 3
# Target: ABI1, truncated, D143A, DHFR fusion (Arabidopsis thaliana)
# Method: DHFR PCA, deep sequencing
# Medium: yeast
# Setting: methotrexate growth selection, single substitutions
# Added: (+)-ABA 2500 µM
# Reference: wild-type fitted maximum
# Direction: higher = stronger binding
# Starting sequence: PYL1, truncated, DHFR fusion (Arabidopsis thaliana); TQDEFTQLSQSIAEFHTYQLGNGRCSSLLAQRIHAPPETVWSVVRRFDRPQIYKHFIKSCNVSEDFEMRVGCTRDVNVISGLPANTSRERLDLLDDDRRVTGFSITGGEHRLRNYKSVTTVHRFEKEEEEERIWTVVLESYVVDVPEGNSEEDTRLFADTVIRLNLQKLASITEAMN; partner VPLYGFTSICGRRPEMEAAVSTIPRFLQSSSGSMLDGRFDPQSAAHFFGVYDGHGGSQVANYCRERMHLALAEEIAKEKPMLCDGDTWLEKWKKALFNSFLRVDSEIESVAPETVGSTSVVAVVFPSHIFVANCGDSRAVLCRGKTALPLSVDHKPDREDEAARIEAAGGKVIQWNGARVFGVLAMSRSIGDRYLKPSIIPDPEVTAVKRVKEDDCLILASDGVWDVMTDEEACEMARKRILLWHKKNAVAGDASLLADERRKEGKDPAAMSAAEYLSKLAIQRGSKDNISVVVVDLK
Substitution,relative binding score
S150E,88.3%
R32L,85%
V100L,96.5%
F66Q,96%
R74Y,0.131%
E14S,85.6%
P36V,91.1%
R90H,90.6%
V136E,86.4%
F56D,3.72%
H16C,39.2%
L93N,94.2%
E67W,91%
E129D,97.3%
E174G,93.6%
R132K,106%
K126T,108%
H16Y,32.8%
E139S,94%
I12Q,96.1%
V76E,20.7%

# Series 4
# Target: RNA binding protein fox-1 homolog 2, RRM domain, GST-SBP tag (RBFOX2, Homo sapiens, UniProt O43251-10, residues 100-194)
# Method: RNA Bind-n-Seq
# Form: RNA
# Medium: in vitro
# Concentration: 365 nM
# Setting: natural RNA segment, single round, ends assumed
# Reference: no-protein control
# Direction: higher = stronger binding
# Target sequence (chain): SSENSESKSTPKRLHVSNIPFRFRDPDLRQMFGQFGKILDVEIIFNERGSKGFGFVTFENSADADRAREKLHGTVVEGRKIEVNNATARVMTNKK
Sequence,RBNS enrichment (R)
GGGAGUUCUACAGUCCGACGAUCAAGAAGCAAUAGUAGCAAUCUUAAAUUUGACUCAUAGGGGAGAUAAGCGUGUGUCUUUUUAACUUAGUCCUAAGGUAAUCCAUUCAGAAGACAGCUUGCCUUUGUGUUCCUGGAAUUCUCGGGUGCCAA,0.88
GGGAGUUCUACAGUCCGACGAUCCUCCAGGUCAUGUCCCUGUGGUUCUGGGGCCACCACUUGUGUAAAAUAAAGUACAGCCUGGACGCUAGUCUUUUGUCAUUUAUUCAGAGGACCAGUGUAGAGUCGGACAAUGGAAUUCUCGGGUGCCAA,0.51
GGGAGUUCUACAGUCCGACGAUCAUUUGUGUGUUCAAUCAGAUAAUUCUGACUUCUGCAUUGCCACACACGAGAUAUUCUGCUUUCAGACUUAUUUUAUUGCAACCAGAGAAUAUGAGAAUUUGAUAUGUAAUUGGAAUUCUCGGGUGCCAA,0.896
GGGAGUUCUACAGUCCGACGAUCAAGGAGAAAUUACCAGUUACGGUUUAUUAAAUCUCUUUUAAAAUGCAGUCAAGGAAAACUAGCCUUGAAUUUUUUUUAGAUAAAAUAAGAUGGUGAUAUGAAACAAAAAGUGGAAUUCUCGGGUGCCAA,0.841
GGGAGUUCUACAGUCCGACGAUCCCUCCCUUCCCCAAGGAUCCACUCCCCCAGCUCCUUUAGAGAAUGGCUACUGCUGAGUCCUUUGGGGUUGAGGGAGAUGGGAGCUAGGGGGAGGGGAGGGAGAUGUCUUGUGGAAUUCUCGGGUGCCAA,0.224
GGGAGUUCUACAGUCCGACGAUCUAUACUUACAUGUAUGUUCUUAAGAGAAAAACUAGGUACCCAUAGUGCACGUUUGAUUAGGAGUGUGAAUAGAGCUGCCGUGGCUCGAGUUCUUUUUAUCUUUUGCUUUUUGGAAUUCUCGGGUGCCAA,1.7
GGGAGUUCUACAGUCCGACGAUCGCUGUCAGCUGGACCUGGUGGCUUGUGGUUGAUGGUCACUAUUAGUGGGUGAGUGGGGAUGACCUGGCUUCCAAGAGGACUGUCACUGUGGACACCAAAAUGGCUUAACUUGGAAUUCUCGGGUGCCAA,0.931
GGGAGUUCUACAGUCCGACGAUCUCUGAGUCUCUCAUUUCUUUAGGGAUGUGGAGAGAAGAUGAAGUAUAGCCGUGUGUAGUGUCGCCAGAGAAGGUGGAGUUUAAGAAUGGUCUCAGUGUUAUUAAUGAGAAUGGAAUUCUCGGGUGCCAA,1.19
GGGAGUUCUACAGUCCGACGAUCUGCUGUCCUUAUUCCUGUUAAAAGCCUCUGGCACUAUGAACAACGCAGUGUGGGGACAGUGGGUGACUCAGAACUCUGCUGGUACCUGGGGGUGGAGCUAUCACUUCCUCUGGAAUUCUCGGGUGCCAA,0.247
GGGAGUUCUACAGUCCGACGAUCAAUAACCAUUUUUAUAAGCAGUUGCUCCUCUUUGCAUGGUUCUAUUCUCUAAAAGUGUUGAAUGAUACAGCCAUUGCACUGAAGUUUGAGCUGUGUGCGUGUGAAUUUAUUGGAAUUCUCGGGUGCCAA,2.38
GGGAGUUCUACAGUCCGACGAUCCUUAGGUUUUCUAAGGACAUUGUUUUAAUCUGUAUCGUGCCAAAGUUGUAUCACUGUUAAACUUCUGAAGACAUAACCAGUUGAGUCUUAUUUCAAGAUAUGUUCUCAAGUGGAAUUCUCGGGUGCCAA,0.4
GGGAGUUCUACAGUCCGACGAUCAUGUAAGAUUUUACAAAUCUUUUAUUUCCCCACAAGAUCUGAAGUUUGGUAUUUUUGCAUUAUGACAGUUGUUGAGACUAGGAUUUUAAGCUAGGAUAUGAUUAUAUUUCUGGAAUUCUCGGGUGCCAA,0.684

# Series 5
# Target: Histone acetyltransferase KAT6A, both winged helices, GST fusion (KAT6A, Homo sapiens, UniProt Q92794, residues 1-181)
# Method: protein binding microarray
# Form: double-stranded DNA, one strand shown
# Medium: in vitro
# Concentration: not given
# Setting: 8-mer, flanks averaged, mean of 2 arrays, mostly near background
# Reference: not given
# Direction: higher = stronger binding
# Construct (chain): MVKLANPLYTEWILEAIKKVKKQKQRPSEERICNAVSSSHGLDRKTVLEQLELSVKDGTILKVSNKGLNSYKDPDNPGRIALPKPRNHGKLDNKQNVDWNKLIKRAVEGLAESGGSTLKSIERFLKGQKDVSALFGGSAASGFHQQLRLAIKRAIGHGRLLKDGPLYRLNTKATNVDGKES
Sequence,E-score
CAAATCTC,-0.0428
AATACGTC,0.0565
ATATAGGA,-0.103
CAAATGGG,-0.247
GTAATAGA,-0.108
CCCATATC,-0.151
ACAACTCG,-0.129
ATAGCTTG,-0.0979
GAGGGAAA,-0.205
TAGTGACA,-0.154
CCGATTAA,0.0579
TGGCCGAA,0.0782
ATCAAAAC,0.0271
CAGTTGCG,0.0476
CCAGCCTC,-0.268
ACACAGAG,-0.0492
TCAGCGCA,0.189
ATCTTTTG,0.00639
CTAACATA,-0.162
AGGCAATG,-0.241
GAAAGTCA,-0.108
CTGCCCGA,0.0547
ATGTGCCC,-0.0306

# Repeated from above (series 2):
Modification,mean fluorescence intensity [a.u.]
2'F-ANA at 1 5 6 7 8 10 12 13 15,49.5
2'F-ANA at 2 3 6 7 8 9 12 13,824
2'F-ANA at 2 4 5 6 9 10 15,44.3
2'F-ANA at 1 6 9 11 14,50.1
2'F-ANA at 3 4 5 7 8 9 10 11 13,56.3
2'F-ANA at 1 3 5 6 8 10 11 13 14 15,55.1
2'F-ANA at 2 5 7 9 13,52.2
2'F-ANA at 1 3 4 5 6 9 12 13 14,48.8
2'F-ANA at 10 11 13 14 15,96.6
2'F-ANA at 2 4 10 11 14,66.4
2'F-ANA at 1 3 4 8 9 11 12 15,355
2'F-ANA at 2 3 5 7 8 10 12 13,59.5
